Results from different studies.
Protocols differ between the studies behind these lines. ± marks the error that the study gave.
Succinate dehydrogenase complex: Succinate dehydrogenase complex (Sus scrofa, UniProt A5GZW8+D0VWV4+Q007T0+Q0QF01)
Sequence of UniProt Q0QF01 (whole entry, looked up): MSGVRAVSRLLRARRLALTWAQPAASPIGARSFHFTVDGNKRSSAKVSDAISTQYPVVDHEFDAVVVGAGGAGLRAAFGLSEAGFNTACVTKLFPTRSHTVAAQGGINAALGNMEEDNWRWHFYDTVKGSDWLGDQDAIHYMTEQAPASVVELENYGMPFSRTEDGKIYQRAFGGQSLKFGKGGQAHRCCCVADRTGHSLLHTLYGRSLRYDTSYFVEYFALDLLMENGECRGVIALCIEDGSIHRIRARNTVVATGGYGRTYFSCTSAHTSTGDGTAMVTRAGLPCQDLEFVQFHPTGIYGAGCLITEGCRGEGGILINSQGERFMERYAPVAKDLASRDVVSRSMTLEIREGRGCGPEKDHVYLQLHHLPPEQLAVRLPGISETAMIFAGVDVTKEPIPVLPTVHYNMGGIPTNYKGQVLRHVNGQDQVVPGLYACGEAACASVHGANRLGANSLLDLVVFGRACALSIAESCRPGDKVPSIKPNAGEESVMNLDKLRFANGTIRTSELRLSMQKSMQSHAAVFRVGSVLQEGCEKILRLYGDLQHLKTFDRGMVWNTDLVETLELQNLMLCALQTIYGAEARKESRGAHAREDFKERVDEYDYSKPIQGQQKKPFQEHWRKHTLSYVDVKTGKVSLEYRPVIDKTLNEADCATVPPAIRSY
Sequence of UniProt A5GZW8 (whole entry, looked up): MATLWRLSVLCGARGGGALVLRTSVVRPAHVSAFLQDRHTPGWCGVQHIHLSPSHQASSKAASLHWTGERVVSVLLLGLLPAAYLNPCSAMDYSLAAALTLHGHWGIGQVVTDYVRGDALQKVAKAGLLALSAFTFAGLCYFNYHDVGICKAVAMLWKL
Sequence of UniProt D0VWV4 (whole entry, looked up): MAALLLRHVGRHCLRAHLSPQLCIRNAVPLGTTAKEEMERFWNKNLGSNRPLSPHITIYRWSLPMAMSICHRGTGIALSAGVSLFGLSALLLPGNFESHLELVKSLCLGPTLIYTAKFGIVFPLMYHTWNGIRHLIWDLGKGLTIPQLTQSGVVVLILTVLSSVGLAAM
Sequence of UniProt Q007T0 (whole entry, looked up): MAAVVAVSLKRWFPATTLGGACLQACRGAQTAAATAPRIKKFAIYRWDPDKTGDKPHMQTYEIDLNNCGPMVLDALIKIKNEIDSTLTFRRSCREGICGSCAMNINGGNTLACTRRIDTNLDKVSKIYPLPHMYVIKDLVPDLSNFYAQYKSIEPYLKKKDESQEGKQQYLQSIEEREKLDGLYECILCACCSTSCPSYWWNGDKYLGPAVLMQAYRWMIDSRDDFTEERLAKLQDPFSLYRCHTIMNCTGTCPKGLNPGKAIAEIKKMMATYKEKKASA
GSTO1: Glutathione S-transferase omega-1 (GSTO1, Homo sapiens, UniProt P78417)
Sequence of UniProt P78417 (whole entry, looked up): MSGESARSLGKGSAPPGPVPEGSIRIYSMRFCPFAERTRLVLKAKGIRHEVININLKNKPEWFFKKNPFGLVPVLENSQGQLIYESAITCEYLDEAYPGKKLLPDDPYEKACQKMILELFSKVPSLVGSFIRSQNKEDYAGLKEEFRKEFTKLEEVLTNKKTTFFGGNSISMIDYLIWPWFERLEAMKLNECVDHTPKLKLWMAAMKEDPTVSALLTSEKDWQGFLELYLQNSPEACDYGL
AGER: Advanced glycosylation end product-specific receptor (AGER, Homo sapiens, UniProt Q15109)
Sequence of UniProt Q15109 (whole entry, looked up): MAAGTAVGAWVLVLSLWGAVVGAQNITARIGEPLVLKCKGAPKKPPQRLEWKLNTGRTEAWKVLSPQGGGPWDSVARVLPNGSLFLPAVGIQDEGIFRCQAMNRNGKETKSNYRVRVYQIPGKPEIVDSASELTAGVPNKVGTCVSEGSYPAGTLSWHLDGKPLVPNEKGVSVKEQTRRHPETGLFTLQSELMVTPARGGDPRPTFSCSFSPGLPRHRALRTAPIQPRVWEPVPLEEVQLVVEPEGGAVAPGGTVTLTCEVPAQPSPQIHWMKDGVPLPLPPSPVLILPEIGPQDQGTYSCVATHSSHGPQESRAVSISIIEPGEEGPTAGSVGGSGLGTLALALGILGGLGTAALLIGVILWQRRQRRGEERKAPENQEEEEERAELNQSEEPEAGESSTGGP
FLT3 ITD: Receptor-type tyrosine-protein kinase FLT3 (FLT3, Homo sapiens, UniProt P36888, ITD)
BLK: Tyrosine-protein kinase Blk (BLK, Homo sapiens, UniProt P51451)
Sequence of UniProt P51451 (whole entry, looked up): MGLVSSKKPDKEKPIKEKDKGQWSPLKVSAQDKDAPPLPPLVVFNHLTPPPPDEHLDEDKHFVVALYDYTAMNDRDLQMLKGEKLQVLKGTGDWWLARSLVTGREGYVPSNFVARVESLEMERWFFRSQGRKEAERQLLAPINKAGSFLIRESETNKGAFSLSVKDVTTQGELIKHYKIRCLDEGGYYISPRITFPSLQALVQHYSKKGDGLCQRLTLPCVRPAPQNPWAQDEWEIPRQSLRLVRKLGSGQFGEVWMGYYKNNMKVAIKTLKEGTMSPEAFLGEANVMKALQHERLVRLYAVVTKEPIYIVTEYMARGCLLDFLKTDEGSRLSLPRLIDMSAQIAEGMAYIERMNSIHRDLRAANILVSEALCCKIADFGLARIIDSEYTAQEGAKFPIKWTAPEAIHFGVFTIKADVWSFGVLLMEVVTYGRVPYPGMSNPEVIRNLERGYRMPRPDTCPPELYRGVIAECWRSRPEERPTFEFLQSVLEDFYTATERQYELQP
lecA: PA-I galactophilic lectin (lecA, Pseudomonas aeruginosa, UniProt Q05097)
Sequence of UniProt Q05097 (whole entry, looked up): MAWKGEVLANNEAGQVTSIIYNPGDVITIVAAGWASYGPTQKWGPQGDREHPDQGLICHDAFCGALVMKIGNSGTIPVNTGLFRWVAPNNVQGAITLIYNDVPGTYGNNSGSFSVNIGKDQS
GLO1: Lactoylglutathione lyase (GLO1, Homo sapiens, UniProt Q04760)
Sequence of UniProt Q04760 (whole entry, looked up): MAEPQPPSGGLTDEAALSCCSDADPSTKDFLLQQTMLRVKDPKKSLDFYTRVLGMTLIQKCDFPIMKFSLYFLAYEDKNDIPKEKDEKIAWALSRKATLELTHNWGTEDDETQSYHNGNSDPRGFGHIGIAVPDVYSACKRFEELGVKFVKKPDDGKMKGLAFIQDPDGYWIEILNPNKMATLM
Sequence of UniProt P05067 (whole entry, looked up): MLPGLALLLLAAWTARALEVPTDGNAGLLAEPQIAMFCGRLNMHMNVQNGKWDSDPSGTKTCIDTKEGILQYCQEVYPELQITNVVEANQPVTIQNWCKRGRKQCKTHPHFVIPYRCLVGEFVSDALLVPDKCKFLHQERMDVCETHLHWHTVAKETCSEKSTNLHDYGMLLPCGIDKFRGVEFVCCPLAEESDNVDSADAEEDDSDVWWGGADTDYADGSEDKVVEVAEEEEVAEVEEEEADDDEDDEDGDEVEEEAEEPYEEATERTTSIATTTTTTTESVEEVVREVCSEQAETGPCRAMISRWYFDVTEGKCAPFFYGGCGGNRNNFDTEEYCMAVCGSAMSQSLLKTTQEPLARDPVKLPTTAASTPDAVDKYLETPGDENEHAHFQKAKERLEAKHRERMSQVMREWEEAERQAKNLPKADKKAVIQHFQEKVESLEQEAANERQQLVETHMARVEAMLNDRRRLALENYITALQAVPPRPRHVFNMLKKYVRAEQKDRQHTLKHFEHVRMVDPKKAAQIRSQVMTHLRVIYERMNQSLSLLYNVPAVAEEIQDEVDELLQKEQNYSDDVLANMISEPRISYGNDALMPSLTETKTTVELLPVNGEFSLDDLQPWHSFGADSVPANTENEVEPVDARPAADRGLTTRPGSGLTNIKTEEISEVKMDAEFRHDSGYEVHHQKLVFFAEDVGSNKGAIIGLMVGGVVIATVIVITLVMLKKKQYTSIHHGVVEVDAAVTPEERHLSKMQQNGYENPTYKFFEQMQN
Sequence of UniProt P50750 (whole entry, looked up): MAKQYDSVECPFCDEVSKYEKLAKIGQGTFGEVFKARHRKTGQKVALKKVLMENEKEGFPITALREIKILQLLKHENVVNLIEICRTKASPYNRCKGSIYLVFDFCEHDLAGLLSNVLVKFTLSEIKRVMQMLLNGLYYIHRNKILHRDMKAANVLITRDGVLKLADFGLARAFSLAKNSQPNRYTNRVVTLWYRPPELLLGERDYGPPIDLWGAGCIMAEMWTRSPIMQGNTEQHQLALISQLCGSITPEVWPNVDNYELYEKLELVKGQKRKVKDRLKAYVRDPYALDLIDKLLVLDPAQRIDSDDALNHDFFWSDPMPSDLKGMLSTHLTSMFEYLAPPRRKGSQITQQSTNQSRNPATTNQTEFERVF

| SMILES | target | test | test system | setting | inhibition |
| --- | --- | --- | --- | --- | --- |
| CC(C)(C)CCN1C[C@@H]2[C@@H](CNC(=O)c3cc(Cl)cc(Cl)c3)[C@@H]2C1.Cl | Voltage-dependent L-type calcium channel subunit alpha-1F (Homo sapiens, UniProt O60840, T1007Y) | calcium current, whole-cell patch clamp | HEK-293T transfected | 5 µM | ~33% |
| COc1ccc(/C=C/C(=O)N2CCN(c3ccccc3)CC2)cc1 | Agaricus bisporus tyrosinase | diphenolase activity |  | 500 µM, added: L-DOPA substrate | 15.1 ± 5.4% |
| COc1ncccc1C(=O)Nc1ccccc1Nc1ccccc1 | Succinate dehydrogenase complex | enzyme activity, double-antibody sandwich ELISA |  | 8 µM | 53.6% |
| O=C(NCc1ccccc1)C(c1cccnc1)N(C(=O)CCl)c1ccc(F)cc1 (racemic) | GSTO1 | probe labelling, gel-based competitive ABPP | MDA-MB-435 soluble proteome | 100 nM, added: SE-Rh probe | 90% |
| COc1cc(N(C(=O)c2cc3ccc(Cl)cc3s2)c2ccc(OCCN3CCCC3)cc2)cc(OC)c1OC | AGER | binding to AGE-BSA, competitive ELISA |  | 100 µM, 60 min | 49% |
| O=C(Nc1cc(Cl)ccc1O)c1nn2c(C(F)(F)F)cc(-c3cc(Br)cs3)nc2c1Br | Hepatitis A virus cellular receptor 2, part galectin-9 interaction (Homo sapiens, UniProt Q8TDQ0) | galectin-9 binding, competitive ELISA |  | 2.5 µM | inhibited |
| Cn1cnnc1Sc1c2c(c(C#N)c3nc4ccccc4n13)CCCC2 | MAOA (Homo sapiens, UniProt P21397) | enzyme activity, inhibitor |  | 100 µM | no inhibition |
| CC[C@H](C)[C@H](NC(=O)[C@@H](Cc1ccccc1)NC(=O)[C@@H](N)C(C)C)C(=O)N[C@@H](C)C(N)=O | APP (Homo sapiens, UniProt P05067) | amyloid aggregation, inhibitor, fluorescence |  | 2 µM, 24 h | 75.8% |
| O=C(CCl)N(CCNC(=O)C(F)(F)F)c1ccccc1[N+](=O)[O-] | GSTO1 | probe labelling, gel-based competitive ABPP | MDA-MB-435 soluble proteome | 100 nM, added: SE-Rh probe | 5% |
| N#Cc1ccc(NC(=O)c2cc3ccc(Cl)cc3s2)cc1 | AGER | binding to AGE-BSA, competitive ELISA |  | 100 µM, 60 min | 26% |
| COc1cc(OC2CCN(C)CC2)ccc1Nc1ncc2c(n1)n(C1CCCC1)c(=O)n2C | MAPK9 (Homo sapiens, UniProt P45984) | enzyme activity, inhibitor |  | 1 µM | > 40% |
| O=C(Nc1ccccc1Nc1ccccc1)c1cccnc1Br | Succinate dehydrogenase complex | enzyme activity, double-antibody sandwich ELISA |  | 1 µM | 25.4% |
| O=C(O[C@H]1Cc2c(O)cc(O)cc2O[C@@H]1c1ccc(O)cc1)c1cc(O)c(O)c(O)c1 | maltase, rat | enzyme activity, inhibitor | rat intestinal brush border vesicles | 10 µM | 91.8% |
| c1n[nH]cc1-c1nc2ccc3[nH]ncc3c2c2c1CCCC2 | FLT3 ITD | enzyme activity, inhibitor, ADP detection |  | 0.1 µM | 53% |
| CN1CC[C@H](c2c(O)cc(O)c3c(=O)cc(/C=C/c4c(Cl)cccc4Cl)oc23)[C@H](O)C1 | Cyclin-dependent kinase 9, with cyclin T1 (CDK9, Homo sapiens, UniProt P50750) | enzyme activity, inhibitor |  | 500 nM | 97 ± 1.2% |
| O=C(Nc1ccccc1Nc1ccccc1)c1nccnc1Cl | Succinate dehydrogenase complex | enzyme activity, double-antibody sandwich ELISA |  | 2 µM | 21.9% |
| CN(C1COC1)C(C)(C)/C=C(\C#N)C(=O)N1CCC[C@H]1Cn1nc(-c2ccc(Oc3ccccc3)cc2F)c2c(N)ncnc21 | BLK |  |  | 1 µM, mean | > 90% |
| COC(=O)CCSc1nc2n(n1)C(c1cccc(OC)c1)C(C(=O)Nc1cncc(C)c1)=C(C)N2 (stereo not shown) | MTOR (Homo sapiens, UniProt P42345) | enzyme activity, inhibitor, TR-FRET |  | 3 nM | 41.1% |
| N#Cc1ccc(O)c(O)c1 | lecA | binding inhibitor, fluorescence polarization |  | 4000 µM, 4 mM catechol, added: Cy5 galactoside tracer | 4 ± 1% |
| COc1ccc(NC(=O)c2cc3ccc(Cl)cc3s2)cc1 | AGER | binding to AGE-BSA, competitive ELISA |  | 100 µM, 60 min | 29% |
| Oc1ccc(/N=N/c2ccccc2)c2cccnc12 | GLO1 | enzyme activity, inhibitor |  | 25 µM | 82.8% |
| Cn1c(=O)c2cc(C(=O)NCCCN3CCCCCC3)sc2c2ccccc21 | FDPS (Homo sapiens, UniProt P14324) | enzyme activity |  | up to 200 µM | no inhibition |
| O=C(NCc1ccccc1)c1cc2ccc(Cl)cc2s1 | AGER | binding to AGE-BSA, competitive ELISA |  | 100 µM, 60 min | 25% |

| SMILES | target | test | test system | setting | inhibition |
| --- | --- | --- | --- | --- | --- |
| O=C(O)c1ccc(/N=N/c2cc(C(=O)O)c(O)c3ccccc23)cc1 | GLO1 | enzyme activity, inhibitor |  | 25 µM | 67.7% |
| Cc1ccc(N(CCNC(=O)C(F)(F)F)C(=O)CCl)cc1 | GSTO1 | probe labelling, gel-based competitive ABPP | MDA-MB-435 soluble proteome | 100 nM, added: SE-Rh probe | 15% |
| Cc1cc(Nc2cc(CN(C)C)cc(NC(=O)c3cccc(Nc4ccnc5ccccc45)c3)c2)nc(N)n1 | DNA polymerase eta (POLH, Homo sapiens, UniProt Q9Y253) | enzyme activity, inhibitor |  | 10 µM | > 50% |
| Oc1ccc(CCC(O)CC(O)CCc2ccc(O)cc2)cc1 (stereo not shown) | Maoa (Rattus norvegicus, UniProt P21396) | enzyme activity, inhibitor |  | 50 µg/mL, added: serotonin substrate | 1.2 ± 2.6% |
| NS(=O)(=O)c1ccc(/N=N/c2cc3ccccc3c(C=O)c2O)cc1 | GLO1 | enzyme activity, inhibitor |  | 25 µM | 48.8% |
| CC(C)(C)NC(=O)[C@@H]1C[C@@H]2CCCC[C@@H]2CN1C[C@@H](OC(=O)CCC(=O)OC[C@H](O)[C@H]1OC(=O)C(O)=C1O)[C@H](Cc1ccccc1)NC(=O)[C@H](CC(N)=O)NC(=O)c1ccc2ccccc2n1 | Sodium-dependent vitamin C transporter (Canis lupus familiaris, UniProt A8CX01) | ascorbic acid uptake | MDCK-MDR1 | 200 µM, added: [14C]ascorbic acid 23.5 µM | 51% |
| O=C(O)c1ccc(/N=N/c2cc3ccccc3c(C(=O)O)c2O)cc1 | GLO1 | enzyme activity, inhibitor |  | 25 µM | 44.9% |
| O=C(Nc1ccccc1Nc1ccccc1)c1cccnc1C(F)(F)F | Succinate dehydrogenase complex | enzyme activity, double-antibody sandwich ELISA |  | 0.5 µM | 16.7% |
| OCc1cccc(O)c1O | lecA | ligand displacement, FP |  | 4 mM | 11% |
| Cc1cc(NC(=O)[C@H](O)c2cc(F)cc(F)c2)ccc1-c1cnc(N)c(C(=O)NC(C)C)c1 | BLK | cell-free assay, competition with immobilised ligand |  | 1 µM | > 50% |
| O=[N+]([O-])c1ccc(O)c(O)c1 | lecA | binding inhibitor, fluorescence polarization |  | 4000 µM, 4 mM catechol, added: Cy5 galactoside tracer | 37 ± 1% |
| Cc1ccc(NC(=O)c2cc3ccc(Cl)cc3s2)cc1 | AGER | binding to AGE-BSA, competitive ELISA |  | 100 µM, 60 min | 9% |
| O=C(Nc1ccccc1Nc1ccccc1)c1cccnc1F | Succinate dehydrogenase complex | enzyme activity, double-antibody sandwich ELISA |  | 1 µM | 6.41% |
| O=C(NC1CCCCC1)C(c1ccccn1)N(C(=O)CCl)c1ccc(F)cc1 (racemic) | GSTO1 | probe labelling, gel-based competitive ABPP | MDA-MB-435 soluble proteome | 100 nM, added: SE-Rh probe | 100% |
| COc1cc(C(=O)NC2CCC(N3CCN(CC4CCC5(CCCC5)C4)CC3)CC2)c(F)cc1Nc1ncc2c(n1)N(C1CCCC1(F)F)CC(F)(F)C(=O)N2C (stereo not shown) | BLK | cell-free assay, TR-FRET |  | 10 µM | 0.69% |
| FC(F)(F)c1n[nH]cc1-c1nc2ccc3[nH]ncc3c2c2c1CCC2 | FLT3 ITD | enzyme activity, inhibitor, ADP detection |  | 0.1 µM | 55% |
| O=C(NC1CCCCC1)C(c1cccnc1)N(C(=O)CCl)c1ccc(F)cc1 (racemic) | GSTO1 | probe labelling, inhibitor, competitive ABPP | MDA-MB-435 | 1 µM, 18 h, serum-containing medium | > 75% |
| COc1ccc(N2C(=O)CSC2c2cccc(Br)c2)c(OC)c1 (stereo not shown) | ACTR2/ACTR3 (Bos taurus, UniProt A7MB62+P61157) | actin polymerization rate, pyrenyl-actin |  | concentration not given | inhibited |
| CC(=O)N[C@H]1NC[C@H](C(=O)O)[C@H](O)[C@@H]1O | Sialidase-2 (Homo sapiens, UniProt Q9Y3R4) | enzyme activity, inhibitor, fluorescence |  | 300 µM, pH 4 | 89% |
| O=C(O[C@@H]1Cc2c(O)cc(O)cc2O[C@@H]1c1ccc(O)c(O)c1)c1cc(O)c(O)c(O)c1 | maltase, rat | enzyme activity, inhibitor | rat intestinal brush border vesicles | 10 µM | 84.7% |
| CC[C@H](C)[C@H](NC(=O)[C@H](CCCNC(=N)N)NC(=O)[C@H](CCCCN)NC(=O)[C@@H]1CCCN1C(=O)[C@@H]1CCCN1CCCN(CC[C@H](N)C(=O)O)C[C@H]1O[C@@H](n2cnc3c(N)ncnc32)[C@H](O)[C@@H]1O)C(=O)N[C@@H](C)C(N)=O | NNMT (Homo sapiens, UniProt P40261) | enzyme activity, inhibitor |  | 100 µM | < 30% |
| O=C(CCl)N(CCNC(=O)C(F)(F)F)c1ccc([N+](=O)[O-])cc1 | GSTO1 | probe labelling, gel-based competitive ABPP | MDA-MB-435 soluble proteome | 100 nM, added: SE-Rh probe | ≥ 98% |
| O=C(O)c1n[nH]cc1-c1nc2ccc3[nH]ncc3c2c2c1CCCC2 | FLT3 ITD | enzyme activity, inhibitor, ADP detection |  | 0.1 µM | 6% |

For quick reference, copied from above:
| SMILES | target | test | test system | setting | inhibition |
| --- | --- | --- | --- | --- | --- |
| FC(F)(F)c1n[nH]cc1-c1nc2ccc3[nH]ncc3c2c2c1CCC2 | FLT3 ITD | enzyme activity, inhibitor, ADP detection |  | 0.1 µM | 55% |
| CC(=O)N[C@H]1NC[C@H](C(=O)O)[C@H](O)[C@@H]1O | Sialidase-2 (Homo sapiens, UniProt Q9Y3R4) | enzyme activity, inhibitor, fluorescence |  | 300 µM, pH 4 | 89% |
| O=C(Nc1ccccc1Nc1ccccc1)c1nccnc1Cl | Succinate dehydrogenase complex | enzyme activity, double-antibody sandwich ELISA |  | 2 µM | 21.9% |
| O=[N+]([O-])c1ccc(O)c(O)c1 | lecA | binding inhibitor, fluorescence polarization |  | 4000 µM, 4 mM catechol, added: Cy5 galactoside tracer | 37 ± 1% |
| COC(=O)CCSc1nc2n(n1)C(c1cccc(OC)c1)C(C(=O)Nc1cncc(C)c1)=C(C)N2 (stereo not shown) | MTOR (Homo sapiens, UniProt P42345) | enzyme activity, inhibitor, TR-FRET |  | 3 nM | 41.1% |
| COc1cc(OC2CCN(C)CC2)ccc1Nc1ncc2c(n1)n(C1CCCC1)c(=O)n2C | MAPK9 (Homo sapiens, UniProt P45984) | enzyme activity, inhibitor |  | 1 µM | > 40% |
